Experimental data gathered from unrelated publications.
Numbered parts are unrelated; each lists some results of a single study. Substitutions count along the parent as printed.

Study 1
Target: Prothrombin, mature alpha-thrombin (F2, Homo sapiens, UniProt P00734)
Technique: aptamer microarray, sandwich
Form: DNA with 2'F-ANA
Sample: in vitro
Concentration: 200 nM
Setting: whole 15-mer aptamer, many near background
Together with: Cy3 exosite-II aptamer, 400 nM
Direction: higher = stronger binding
Strand: GGTTGGTGTGGTTGG
Modification	mean fluorescence intensity [a.u.]
2'F-ANA at 4 5 8 9 11 12 14	49.3
2'F-ANA at 1 6 9 10 11 12 13 14 15	63.5
2'F-ANA at 3 4 5 7 8 14	115
2'F-ANA at 1 5 6 8 12 14	43.8
2'F-ANA at 1 4 7 9 10 11	48.8
2'F-ANA at 1 2 5 6 9 10 13	70
2'F-ANA at 2 5 7 8 9 11 15	68.8
2'F-ANA at 2 4 8 11 12 13	464

Study 2
Target: TAR DNA-binding protein 43, full length, His tag (TARDBP, Homo sapiens, UniProt Q13148, residues 1-414)
Technique: RNA Bind-n-Seq
Form: RNA
Sample: in vitro
Concentration: 20 nM
Setting: 6-mer, flanks averaged, single round
Together with: 150 mM LiCl
Reference: input library
Direction: higher = stronger binding
Strand	6-mer enrichment (R)
UUGGCG	1.06
CCCAGG	0.991
GUUGCG	1.23
UCUUUA	1.02
CAUAUC	0.853
GGUCAC	0.876
ACGUUG	0.947
GCGAUG	1.02

Study 3
Target: Phosphate system positive regulatory protein PHO4, full length, GST-tagged (PHO4, Saccharomyces cerevisiae, UniProt P07270, residues 1-312)
Technique: competition protein-binding microarray
Form: double-stranded DNA, one strand shown
Sample: in vitro
Concentration: 2 µM
Setting: whole 60-bp probe, lowest competitor level
Together with: Cbf1 competitor, 0.05 µM
Direction: higher = stronger binding
Target sequence (chain): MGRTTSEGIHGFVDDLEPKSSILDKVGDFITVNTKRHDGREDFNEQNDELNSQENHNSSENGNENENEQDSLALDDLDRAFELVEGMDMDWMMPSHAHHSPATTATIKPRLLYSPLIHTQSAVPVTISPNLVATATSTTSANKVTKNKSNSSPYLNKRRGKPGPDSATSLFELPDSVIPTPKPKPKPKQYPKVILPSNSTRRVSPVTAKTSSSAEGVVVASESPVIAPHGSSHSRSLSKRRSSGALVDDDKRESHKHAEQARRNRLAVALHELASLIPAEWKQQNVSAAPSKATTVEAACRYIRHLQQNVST
Strand	fluorescence intensity [a.u.]
CGTCCTAGTGATTGGGTCGTGGGTGCCATGAGGAAGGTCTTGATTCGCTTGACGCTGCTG	10600
GAGCTACTTTTTCAACACGTGCATCCAACTTGTAGCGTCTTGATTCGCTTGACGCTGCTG	19000
GATGATGACAAATTCAGCGTGAGGACATCAACTCCCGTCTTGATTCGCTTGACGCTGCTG	3930
TTTGGAAATGCTCACCACGGGAATATGCAAAAAAAAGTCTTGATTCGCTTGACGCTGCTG	6610
CAGGATTTTCCAGTTCGCGTGGTCGTCATAGTTGGGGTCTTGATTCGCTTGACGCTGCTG	6490
AAATTACTAAGTTGGAAGGTGGGTGACGCCGTATGAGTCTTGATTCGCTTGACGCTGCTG	4610
TAAAATGACTGACAGCACGGGACCTTTGAAATTTTGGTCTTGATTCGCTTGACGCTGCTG	8620
CGTCCTAGTGATTGTGAAGTGGGTGCCATGAGGAAGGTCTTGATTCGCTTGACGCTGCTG	6650

Single results of other studies
Starting sequence: PafA, mature enzyme, eGFP fusion (Elizabethkingia meningoseptica, UniProt Q9KJX5); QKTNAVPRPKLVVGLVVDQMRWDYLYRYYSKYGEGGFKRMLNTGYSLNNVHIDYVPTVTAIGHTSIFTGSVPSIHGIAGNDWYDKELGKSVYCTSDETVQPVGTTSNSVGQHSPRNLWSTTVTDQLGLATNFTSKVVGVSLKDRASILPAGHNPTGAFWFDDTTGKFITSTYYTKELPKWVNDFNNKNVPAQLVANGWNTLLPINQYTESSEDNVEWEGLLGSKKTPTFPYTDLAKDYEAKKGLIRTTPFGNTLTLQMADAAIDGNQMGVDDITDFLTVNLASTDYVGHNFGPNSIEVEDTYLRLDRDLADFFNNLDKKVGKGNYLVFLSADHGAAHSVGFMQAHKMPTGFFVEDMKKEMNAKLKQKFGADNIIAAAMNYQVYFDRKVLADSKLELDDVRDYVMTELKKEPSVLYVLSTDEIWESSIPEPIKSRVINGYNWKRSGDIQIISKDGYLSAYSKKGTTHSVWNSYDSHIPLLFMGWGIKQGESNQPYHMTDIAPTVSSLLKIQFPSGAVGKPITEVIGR
Substitution	target	test	test system	setting	how to read	measurement	result
K486G	tungstate, free oxyanion	microfluidic competitive inhibition	in vitro, cell-free expressed	not given, derived from inhibition constants, unchanged parent 2230 nM	lower = stronger binding	oxyanion analog dissociation constant	2.26 µM

A few entries again (study 3):
Strand	fluorescence intensity [a.u.]
GAGCTACTTTTTCAACACGTGCATCCAACTTGTAGCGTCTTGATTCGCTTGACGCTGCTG	19000
